Measured values collected from several papers.
Every numbered part comes from another study and shows a few of its results, in no order.
UniProt O15294, sequence (whole entry, looked up): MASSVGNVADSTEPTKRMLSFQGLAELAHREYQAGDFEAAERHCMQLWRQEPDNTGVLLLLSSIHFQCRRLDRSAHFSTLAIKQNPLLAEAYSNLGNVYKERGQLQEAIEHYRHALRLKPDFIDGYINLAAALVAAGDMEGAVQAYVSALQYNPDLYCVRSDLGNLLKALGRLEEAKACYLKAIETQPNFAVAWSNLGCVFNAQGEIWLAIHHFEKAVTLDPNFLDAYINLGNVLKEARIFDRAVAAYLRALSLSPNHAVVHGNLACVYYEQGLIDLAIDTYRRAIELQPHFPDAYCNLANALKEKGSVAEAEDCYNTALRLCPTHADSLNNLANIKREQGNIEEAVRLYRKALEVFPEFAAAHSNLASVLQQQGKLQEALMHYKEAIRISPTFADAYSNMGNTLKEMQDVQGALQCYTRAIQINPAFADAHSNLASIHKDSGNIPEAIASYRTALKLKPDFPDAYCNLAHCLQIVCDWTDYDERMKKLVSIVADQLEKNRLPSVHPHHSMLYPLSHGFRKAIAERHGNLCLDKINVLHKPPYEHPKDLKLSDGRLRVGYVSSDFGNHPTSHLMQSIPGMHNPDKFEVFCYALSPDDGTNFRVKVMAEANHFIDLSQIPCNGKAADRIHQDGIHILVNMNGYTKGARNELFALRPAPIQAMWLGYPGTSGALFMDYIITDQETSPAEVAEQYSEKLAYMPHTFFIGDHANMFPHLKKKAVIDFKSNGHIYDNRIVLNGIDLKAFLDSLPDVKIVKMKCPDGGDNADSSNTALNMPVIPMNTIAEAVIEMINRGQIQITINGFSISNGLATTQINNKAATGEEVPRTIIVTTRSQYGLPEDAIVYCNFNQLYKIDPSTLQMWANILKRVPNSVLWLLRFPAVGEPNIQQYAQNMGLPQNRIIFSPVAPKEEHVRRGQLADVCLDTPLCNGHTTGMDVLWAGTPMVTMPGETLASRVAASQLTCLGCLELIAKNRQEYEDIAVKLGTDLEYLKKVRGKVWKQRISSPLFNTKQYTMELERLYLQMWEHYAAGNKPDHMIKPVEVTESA

Set 1
Target: PABPC1L2, full length, GST fusion (mouse, UniProt A0ABA7IW68)
Technique: RNAcompete
Molecule type: RNA
Sample: in vitro
Tested at: 20 nM
Notes: 7-mer, probes averaged, single round
Relative to: mean of 7-mers
Direction: higher = stronger binding
Residues (chain): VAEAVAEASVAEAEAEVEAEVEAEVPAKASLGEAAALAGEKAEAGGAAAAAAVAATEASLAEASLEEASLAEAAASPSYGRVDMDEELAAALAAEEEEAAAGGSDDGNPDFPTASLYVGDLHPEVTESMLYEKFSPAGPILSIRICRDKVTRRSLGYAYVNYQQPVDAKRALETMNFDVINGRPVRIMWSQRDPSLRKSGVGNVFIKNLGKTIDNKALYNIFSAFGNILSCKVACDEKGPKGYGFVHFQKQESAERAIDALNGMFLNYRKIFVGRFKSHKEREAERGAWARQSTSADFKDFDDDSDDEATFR
Strand | 7-mer Z-score
GCUCAAG | -0.133
AAAUACU | 1.37
GGCCCGG | -0.173
AAAAAUC | 14.2
ACGGCGU | -0.199
GUGGUCU | -0.449
GAGGCCU | -0.139
ACCAUUG | -0.242

Set 2
Target: Sal-like protein 4, full length isoform A (SALL4, Homo sapiens, UniProt Q9UJQ4, residues 1-1053)
UniProt Q9UJQ4, sequence (whole entry, looked up): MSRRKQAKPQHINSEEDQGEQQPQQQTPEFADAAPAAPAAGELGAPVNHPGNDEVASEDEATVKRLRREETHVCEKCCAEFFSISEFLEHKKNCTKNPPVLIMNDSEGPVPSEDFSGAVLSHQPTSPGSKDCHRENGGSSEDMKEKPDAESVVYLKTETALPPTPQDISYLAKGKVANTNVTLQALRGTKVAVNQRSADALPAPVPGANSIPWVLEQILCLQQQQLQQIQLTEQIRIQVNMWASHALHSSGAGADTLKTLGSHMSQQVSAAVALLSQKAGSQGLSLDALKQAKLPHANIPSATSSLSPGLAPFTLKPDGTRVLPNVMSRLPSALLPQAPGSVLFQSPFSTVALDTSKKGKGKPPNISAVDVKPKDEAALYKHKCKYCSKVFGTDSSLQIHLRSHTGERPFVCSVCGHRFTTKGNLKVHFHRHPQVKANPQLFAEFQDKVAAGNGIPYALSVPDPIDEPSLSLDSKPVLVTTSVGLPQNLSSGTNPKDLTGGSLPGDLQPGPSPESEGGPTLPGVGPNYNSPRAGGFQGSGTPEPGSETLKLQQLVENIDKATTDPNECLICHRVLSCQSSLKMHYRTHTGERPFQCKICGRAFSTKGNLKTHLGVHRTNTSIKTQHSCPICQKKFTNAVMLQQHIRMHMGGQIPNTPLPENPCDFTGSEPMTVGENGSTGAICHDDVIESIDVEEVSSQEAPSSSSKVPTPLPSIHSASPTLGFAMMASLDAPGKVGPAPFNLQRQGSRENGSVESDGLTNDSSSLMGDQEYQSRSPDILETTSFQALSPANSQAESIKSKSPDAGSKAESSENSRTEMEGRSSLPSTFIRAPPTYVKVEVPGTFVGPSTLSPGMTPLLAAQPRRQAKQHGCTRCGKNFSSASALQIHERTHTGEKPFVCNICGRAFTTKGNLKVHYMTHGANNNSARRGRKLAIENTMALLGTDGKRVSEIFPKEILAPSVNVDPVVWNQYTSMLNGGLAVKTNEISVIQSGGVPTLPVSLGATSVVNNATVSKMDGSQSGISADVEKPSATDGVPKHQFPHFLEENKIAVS
Technique: universal PBM
Molecule type: double-stranded DNA, one strand shown
Sample: in vitro
Tested at: 600 nM
Notes: 8-mer, flanks averaged, mean of replicates
Direction: higher = stronger binding
Strand | E-score
CCTGAACC | -0.124
AGGGAGAC | -0.234
GCCTAGAA | -0.0518
TGGTCTAA | 0.0439
CGTACCAA | -0.0457
CGTATAAC | 0.144
GACTCGGA | -0.277
AGGACCTC | -0.101

Single results of other studies
Substance | target | test | system | setting | how to read | measurement | value
GVQDYLPMYQISMSN | OGT (Homo sapiens, UniProt O15294) | binding, phage display NGS | peptide | concentration not given, panning round 2 | relative to: input library | enrichment fold change | 12.6
PhoQ, residues 284 288 289 292 302 303 SSCCRF | PhoP, residues 12 14 15 18 19 NHTVL (Escherichia coli, UniProt P23836) | Sort-seq, refers to: YFP reporter | E. coli | PhoQ-PhoP variant library, added: 10 µM Mg2+ | relative to: high Mg2+ state, higher = stronger signaling | fold induction | 20.9

A few entries again (set 2):
Strand | E-score
AGGGAGAC | -0.234
